Measured values from different studies.
Compare with care: the assays were run in different laboratories. Numbers after ± are the reported error.

O=C(/C=C/c1ccccc1O)c1ccccc1 — cytotoxicity (K562 transfected; concentration not given, together with: TNF-alpha): toxic
O=C(O)C1OC(Oc2ccc3c(=O)cc(-c4ccccc4)oc3c2)C(O)C(O)C1O (stereo not drawn) — intracellular glucuronide concentration (HeLa-UGT1A9 cells; 20 µM aglycone loading, end of excretion): 179 ± 17.5 µM
Cc1nc([C@@H](NC(=O)c2ccc(-c3ccc(Cl)cc3)[nH]2)[C@H]2CCCCN2)sc1CO — CC50 (MT2; cell growth or viability, XTT): ~30 µM
COc1ccc([C@@H]2CC(=O)c3c(O)cc(O[C@@H]4O[C@H](CO[C@@H]5O[C@@H](C)[C@H](O)[C@@H](O)[C@H]5O)[C@@H](O[C@H]5O[C@H](CO)[C@@H](O)[C@H](O)[C@H]5O)[C@H](O)[C@H]4O)cc3O2)cc1O — viability (MRC5; cell growth or viability, MTS; 100 µg/mL, 24 h): 55.2%
CCCC[C@H](NC(=O)[C@H](CC(=O)O)NC(=O)[C@H](CC(=O)O)NC(=O)[C@H](CCC(=O)O)NC(=O)[C@H](Cc1ccc(O)cc1)NC(=O)[C@H](CC(=O)O)NC(=O)[C@H](CC(=O)O)NC(=O)[C@H](CCC(=O)O)NC(=O)[C@H](CC(C)C)NC(=O)[C@H](CCC(=O)O)NC(=O)[C@H](CCC(=O)O)NC(=O)c1ccc2c(c1)C1(OC2=O)c2ccc(O)cc2Oc2cc(O)ccc21)C(=O)N[C@@H](CCC(=O)O)C(=O)N[C@@H](CCC(=O)O)C(N)=O — median half-life (BEAS-2B single cells; intracellular degradation, CE-LIF; 1 µM, 37 °C, microinjected): 20 min
COc1cccc2c1C(=O)c1c(O)c3c(c(O)c1C2=O)CC(O)(C(=O)CO)CC3OC1CC(NC(=O)C[C@H](N)C(=O)O)C(O)C(C)O1 (stereo partly drawn) — cellular uptake (HepG2 (LAT1-positive); HPLC; 50 µg/mL, 2 h, serum-free medium): 2.63 ± 0.171 µg/mL
O=C(OCc1cccc(O)c1O)c1ccc(O)c(CO)c1 — cytotoxicity (HPMEC; 20 µM, 48 h): not toxic
CCC(=O)N(C)c1ccc(Cl)c(Cl)c1 — cells with multiple aberrations (CHO-WBL; 0.063 mg/mL, 3 h, without S9 activation): 0%
CC(C)=CCc1cc(-c2coc3cc(O)c(CC=C(C)C)c(O)c3c2=O)ccc1O — viability (SW480; cell growth or viability, MTT; 6.25 µg/mL): 127%
CC1(C)CCC2(CO)C(=C3C=CC4[C@@]5(C)CCC(O)[C@@](C)(CO)C5CC[C@@]4(C)[C@]3(C)C[C@H]2O)C1 (stereo partly drawn) — efflux ratio (Caco-2 monolayer; 10 µM, 3 h; relative to: Papp B-A over Papp A-B): 0.01
CC(=O)N[C@H](C(=O)N[C@H](C(=O)N[C@@H](CCCNC(=N)N)C(=O)N1Cc2ccccc2C[C@H]1C(=O)N[C@@H](Cc1ccccc1)C(N)=O)C1CCCCC1)C(C)C — cytokine level (human PBMC; Bio-Plex multiplex, measured: PDGF-bb; 250 µg/mL, 24 h): 250 ± 255 pg/mL
CC1=CC(C)(C)N=C(Nc2nc(C)c3cc(C)cc(C)c3n2)N1 — lowest cytotoxic concentration (IL-2 activated human PBMC; CellTiter-Glo; 48 h): 1 µM
[2H]C(N)(COc1cc(C(F)(F)F)cc(C(F)(F)F)c1)c1ccccc1 (stereo not drawn) — concentration stopping beating (normal iPSC-derived cardiomyocytes; kinetic imaging cytometry): 66 µM
OC(Cc1cc(-c2ccc(C(O)C(F)(F)F)s2)sc1-c1ccc(-c2sc(-c3ccc(C(O)C(F)(F)F)s3)cc2CC(O)C(F)(F)F)s1)C(F)(F)F (stereo not drawn) — cellular uptake (primary human fetal cortical neurons; LC-MS/MS; 4 µM, 2 h; relative to: applied): 10%
Cc1ccccc1C(c1c[nH]c(=O)[nH]c1=O)c1c[nH]c(=O)[nH]c1=O — cytotoxicity (Mo7e; 1 µg/mL): not toxic
Cn1c(=O)c(=O)n(C)c2cc(S(=O)(=O)Nc3ccc(S(=O)(=O)Nc4ncccn4)cc3)ccc21 — inhibition (hTERT-RPE1; cell viability, MTT; concentration not given): 10%
O=C(O)C1OC(Oc2c(-c3ccccc3)oc3ccc(O)cc3c2=O)C(O)C(O)C1O (stereo not drawn) — intracellular glucuronide concentration (HeLa-UGT1A9 cells; measured: 3-O-glucuronide; 0.625 µM aglycone loading, end of excretion): 115 ± 5.2 µM
Cn1cc[n+](C)[c]1[Ir-3]123([c]4n(C)cc[n+]4C)[n]4c5ccc4C(c4c(F)c(F)c(F)c(F)c4F)=C4C=CC(=[N+]41)C(c1c(F)c(F)c(F)c(F)c1F)=c1ccc([n]12)=C(c1c(F)c(F)c(F)c(F)c1F)C1=[N+]3C(=C5c2c(F)c(F)c(F)c(F)c2F)C=C1.O=S(=O)([O-])C(F)(F)F — cellular uptake (NCI-H460; ICP-MS; 1 µM, 2 h): 131 ± 10.2 µg iridium/g protein

For quick reference, copied from above:
COc1cccc2c1C(=O)c1c(O)c3c(c(O)c1C2=O)CC(O)(C(=O)CO)CC3OC1CC(NC(=O)C[C@H](N)C(=O)O)C(O)C(C)O1 (stereo partly drawn) — cellular uptake (HepG2 (LAT1-positive); HPLC; 50 µg/mL, 2 h, serum-free medium): 2.63 ± 0.171 µg/mL
CC1=CC(C)(C)N=C(Nc2nc(C)c3cc(C)cc(C)c3n2)N1 — lowest cytotoxic concentration (IL-2 activated human PBMC; CellTiter-Glo; 48 h): 1 µM
